Measurements collected from several papers.
Each line is one published result; not all experiments were run side by side. Numbers after ± are the reported error.

N=C(N)NCCC[C@@H]1NC(=O)[C@H](CCCCNC(=O)CON=C[C@H](F)[C@@H](O)[C@H](O)[C@H](O)CO)NC(=O)[C@@H](Cc2ccc(O)cc2)NC(=O)[C@H](CC(=O)O)NC(=O)CNC1=O [fluorine-18 labelled]
tissue uptake (nude mice U-87 MG tumour, muscle; intravenous, 2 h): 0.13 ± 0.06 %ID/g

CN1C(=O)[C@@H](Cc2ccc(O)c(I)c2)NC(=O)CNC(=O)[C@H](Cc2ccc3ccccc3c2)NC(=O)[C@H](CCCNC(=N)N)NC(=O)[C@H]1CCCNC(=O)c1ccc(CNC(=O)CN2CCN(CC(=O)O)CCN(CC(=O)O)CC2)cc1 [fluorine-18 labelled]
tissue uptake (SCID mice, Daudi lymphoma xenograft, tumour; intravenous, 1 h): 13.9 ± 0.8 %ID/g

NC12CNCCNCC(NCc3ccc(CNC(=O)CCCC(=O)NCc4ccc(-c5nncnn5)cc4)cc3)(CNCCNC1)CNCCNC2.[64Cu+2]
tissue uptake (athymic nude mice, SW1222 xenograft, blood; 24 h post-injection, 24 h pretargeting interval, with: huA33-TCO pretargeting): 2.61 ± 0.2 %ID/g

CN1C(=O)[C@@H](Cc2ccc(O)c(I)c2)NC(=O)CNC(=O)[C@H](Cc2ccc3ccccc3c2)NC(=O)[C@H](CCCNC(=N)N)NC(=O)[C@H]1CCCNC(=O)c1ccc(CNC(=O)CN2CCN(CC(=O)O)CCN(CC(=O)O)CCN(CC(=O)O)CC2)cc1 [lutetium-177 labelled]
tissue uptake (item: 177Lu radioactivity; female CB-17 SCID mice, Daudi xenograft, lung; intravenous, 0.16 nmol per mouse, 6 h): 0.42 ± 0.06 %ID/g

CCCC[C@H](NC(=O)CN1CCC(NC(=O)CN2CCN(CC(=O)O)CCN(CC(=O)O)CCN(CC(=O)O)CC2)CC1)C(=O)N[C@H]1CC(=O)NCCCC[C@@H](C(N)=O)NC(=O)[C@H](Cc2c[nH]c3ccccc23)NC(=O)[C@H](CCCNC(=N)N)NC(=O)[C@@H](Cc2ccccc2)NC(=O)[C@H](Cc2c[nH]cn2)NC1=O [gallium-68 labelled]
tissue uptake (C57BL/6J mice male B16-F10 tumour, testes; 1 h post injection, unblocked): 0.3 ± 0.1 %ID/g

N=C(N)NCCC[C@H](NC(=O)CON=C[C@H](F)[C@@H](O)[C@H](O)[C@H](O)CO)C(=O)NCC(=O)N[C@@H](CC(=O)O)C(=O)O [fluorine-18 labelled]
tissue uptake (nude mice U-87 MG tumour, intestine; intravenous, 2 h): 0.19 ± 0.09 %ID/g

CC(F)C(=O)NCCOCCOCCOCC(=O)N[C@@H](CCC(=O)NCCCC[C@@H]1NC(=O)[C@@H](Cc2ccc(O)cc2)NC(=O)[C@H](CC(=O)O)NC(=O)CNC(=O)[C@H](CCCNC(=N)N)NC1=O)C(=O)NCCCC[C@@H]1NC(=O)[C@@H](Cc2ccc(O)cc2)NC(=O)[C@H](CC(=O)O)NC(=O)CNC(=O)[C@H](CCCNC(=N)N)NC1=O (some centres unmarked) [fluorine-18 labelled]
tissue uptake (small-animal PET; female athymic nude mice, U-87 MG xenograft, liver; intravenous, 3.7 MBq, 120 min): 0.28 ± 0.08 %ID/g

CC(C)[C@H](NC(=O)[C@@H]1CCCN1C(=O)[C@H](CCCNC(=N)N)NC(=O)[C@H](CS)NC(=O)[C@H](Cc1c[nH]c2ccccc12)NC(=O)[C@H](CCCNC(=N)N)NC(=O)[C@@H](Cc1ccccc1)NC(=O)[C@H](Cc1c[nH]cn1)NC(=O)[C@H](CCC(=O)O)NC(=O)[C@H](CS)NC(=O)[C@H](CS)NC(=O)CNC(=O)[C@@H]1CC(=O)N[C@@H](CCCNC(=N)N)C(=O)NCC(=O)N[C@@H](CC(=O)O)C(=O)N[C@H](Cc2ccc(O)cc2)C(=O)N1)C(N)=O [technetium-99m labelled]
tissue uptake (C57 mice B16/F1 melanoma female, intestines; iv, 0.037 MBq, 0.5 h): 3.41 ± 0.23 %ID

CCCC[C@H](NC(=O)CNC(=O)CNC(=O)CN1CCN(CC(=O)O)CCN(CC(=O)O)CC1)C(=O)N[C@H]1CC(=O)NCCCC[C@@H](C(N)=O)NC(=O)[C@H](Cc2c[nH]c3ccccc23)NC(=O)[C@H](CCCNC(=N)N)NC(=O)[C@@H](Cc2ccccc2)NC(=O)[C@H](Cc2c[nH]cn2)NC1=O [gallium-67 labelled]
tissue uptake (female C57 mice, B16/F1 melanoma, tumor; intravenous, 0.037 MBq, 4 h): 18.2 ± 4.89 %ID/g

O=C([O-])CN1CCN(CC(=O)[O-])CCN(CC(=O)[O-])CCN(CC(=O)[O-])CC1.[64Cu+2]
tissue uptake (athymic nude mice, femur; intravenous, 0.25 h, with: 64Cu): 1.17 %ID/g

CCCC[C@@H]1NC(=O)[C@@H](NC(=O)[C@H](CCC(=O)O)NC(=O)CNC(=O)CN2CCN(CC(=O)O)CCN(CC(=O)O)CCN(CC(=O)O)CC2)CCCCNC(=O)C[C@@H](C(N)=O)NC(=O)[C@H](C(C)C)NC(=O)[C@@H]2CCCN2C(=O)[C@H](CCCNC(=N)N)NC(=O)CNC(=O)[C@H](Cc2c[nH]c3ccccc23)NC(=O)[C@H](CCCNC(=N)N)NC(=O)[C@@H](Cc2ccccc2)NC(=O)[C@H](Cc2c[nH]cn2)NC(=O)[C@H](CCC(=O)O)NC1=O [gallium-67 labelled]
tissue uptake (C57 mice, B16/F10 lung metastases, kidneys; intravenous, 0.037 MBq/mouse, 4 h): 28.8 ± 4.3 %ID/g

CC(F)C(=O)NC[C@@H]1O[C@H](C(=O)NCCCC[C@@H]2NC(=O)[C@@H](Cc3ccccc3)NC(=O)[C@H](CC(=O)O)NC(=O)CNC(=O)[C@H](CCCNC(=N)N)NC2=O)[C@H](O)[C@H](O)[C@H]1O (some centres unmarked) [fluorine-18 labelled]
tissue uptake (small-animal PET; female athymic nude mice, U-87 MG xenograft, muscle; intravenous, 3.7 MBq, 120 min): 0.05 ± 0.01 %ID/g

N=C(N)NCCC[C@@H]1NC(=O)[C@H](CCCCNC(=O)CC[C@H](NC(=O)CN2CCN(CC(=O)O)CCN(CC(=O)O)CCN(CC(=O)O)CC2)C(=O)NCCCC[C@@H]2NC(=O)[C@@H](Cc3ccccc3)NC(=O)[C@H](CC(=O)O)NC(=O)CNC(=O)[C@H](CCCNC(=N)N)NC2=O)NC(=O)[C@@H](Cc2ccccc2)NC(=O)[C@H](CC(=O)O)NC(=O)CNC1=O [gallium-68 labelled]
tissue uptake (female BALB/c nude mice, FaDu xenograft, salivary gland; intravenous, 0.5 nmol/mouse, 1 h): 1.2 ± 0.3 %ID/g

N=C(N)NCCC[C@@H]1NC(=O)[C@H](CCCCNC(=O)CC[C@H](NC(=O)[C@H]2O[C@@H](CNC(=O)c3ccc(F)cc3)[C@H](O)[C@@H](O)[C@H]2O)C(=O)NCCCC[C@@H]2NC(=O)[C@@H](Cc3ccc(O)cc3)NC(=O)[C@H](CC(=O)O)NC(=O)CNC(=O)[C@H](CCCNC(=N)N)NC2=O)NC(=O)[C@@H](Cc2ccc(O)cc2)NC(=O)[C@H](CC(=O)O)NC(=O)CNC1=O [fluorine-18 labelled]
tissue uptake (small-animal PET; female athymic nude mice, U-87 MG xenograft, kidney; intravenous, 3.7 MBq, 120 min): 2.41 ± 0.82 %ID/g

O=C([O-])c1cccc(CN(CCN(Cc2cn(Cc3ccccc3)nn2)Cc2cccc(C(=O)[O-])n2)Cc2cn(Cc3ccccc3)nn2)n1.[64Cu+2]
tissue uptake (healthy athymic nude mice, skin; intravenous, 24 h): 1.04 %ID/g

CC(F)C(=O)NC[C@@H]1O[C@H](C(=O)NCCCC[C@@H]2NC(=O)[C@@H](Cc3ccc(O)cc3)NC(=O)[C@H](CC(=O)O)NC(=O)CNC(=O)[C@H](CCCNC(=N)N)NC2=O)[C@H](O)[C@H](O)[C@H]1O (some centres unmarked) [fluorine-18 labelled]
tissue uptake (small-animal PET; female athymic nude mice, U-87 MG xenograft, kidney; intravenous, 3.7 MBq, 60 min): 0.96 ± 0.15 %ID/g

N=C(N)NCCC[C@H](NC(=O)[C@@H]1CSSC[C@H](NC(=O)[C@H](Cc2ccc3ccccc3c2)NC(=O)[C@H](CCCNC(=N)N)NC(=O)[C@H](CCCNC(=N)N)NC(=S)Nc2ccc(C[C@H]3CN(CC(=O)O)CCN(CC(=O)O)CCN3CC(=O)O)cc2)C(=O)N[C@@H](Cc2ccc(O)cc2)C(=O)N[C@@H](CCCNC(N)=O)C(=O)N[C@@H](CCCCN)C(=O)N[C@H](CCCCN)C(=O)N2CCC[C@H]2C(=O)N[C@@H](Cc2ccc(O)cc2)C(=O)N[C@@H](CCCNC(=N)N)C(=O)N[C@@H](CCCNC(N)=O)C(=O)N1)C(N)=O [copper-64 labelled]
tissue uptake (PET; tumour-bearing mice, liver; 100 µCi, 24 h): 21.2 ± 0.64 %ID/g

Repeated from above:
N=C(N)NCCC[C@H](NC(=O)CON=C[C@H](F)[C@@H](O)[C@H](O)[C@H](O)CO)C(=O)NCC(=O)N[C@@H](CC(=O)O)C(=O)O [fluorine-18 labelled]
tissue uptake (nude mice U-87 MG tumour, intestine; intravenous, 2 h): 0.19 ± 0.09 %ID/g

CC(F)C(=O)NCCOCCOCCOCC(=O)N[C@@H](CCC(=O)NCCCC[C@@H]1NC(=O)[C@@H](Cc2ccc(O)cc2)NC(=O)[C@H](CC(=O)O)NC(=O)CNC(=O)[C@H](CCCNC(=N)N)NC1=O)C(=O)NCCCC[C@@H]1NC(=O)[C@@H](Cc2ccc(O)cc2)NC(=O)[C@H](CC(=O)O)NC(=O)CNC(=O)[C@H](CCCNC(=N)N)NC1=O (some centres unmarked) [fluorine-18 labelled]
tissue uptake (small-animal PET; female athymic nude mice, U-87 MG xenograft, liver; intravenous, 3.7 MBq, 120 min): 0.28 ± 0.08 %ID/g
